Published values pooled from the literature.
Parts stem from different laboratories: compare values within a part only. Positions count from the first letter of the parent shown.
Chain of UniProt Q9LQE8 (whole entry, looked up): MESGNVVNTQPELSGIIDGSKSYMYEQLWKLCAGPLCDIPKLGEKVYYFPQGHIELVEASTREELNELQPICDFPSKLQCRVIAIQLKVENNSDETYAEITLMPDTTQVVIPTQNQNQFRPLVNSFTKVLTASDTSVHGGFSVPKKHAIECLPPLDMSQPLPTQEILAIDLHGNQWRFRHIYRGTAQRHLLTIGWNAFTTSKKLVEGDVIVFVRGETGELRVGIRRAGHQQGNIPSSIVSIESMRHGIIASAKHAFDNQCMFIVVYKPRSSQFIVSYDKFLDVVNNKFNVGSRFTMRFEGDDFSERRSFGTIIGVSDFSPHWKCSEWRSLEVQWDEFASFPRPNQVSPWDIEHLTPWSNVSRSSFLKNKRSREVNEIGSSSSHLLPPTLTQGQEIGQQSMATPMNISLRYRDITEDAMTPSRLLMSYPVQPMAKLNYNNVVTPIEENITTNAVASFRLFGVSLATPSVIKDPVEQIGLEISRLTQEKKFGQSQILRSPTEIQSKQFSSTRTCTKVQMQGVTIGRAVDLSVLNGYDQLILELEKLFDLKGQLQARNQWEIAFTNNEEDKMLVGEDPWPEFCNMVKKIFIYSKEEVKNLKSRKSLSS
Chain of UniProt Q9ZPY6 (whole entry, looked up): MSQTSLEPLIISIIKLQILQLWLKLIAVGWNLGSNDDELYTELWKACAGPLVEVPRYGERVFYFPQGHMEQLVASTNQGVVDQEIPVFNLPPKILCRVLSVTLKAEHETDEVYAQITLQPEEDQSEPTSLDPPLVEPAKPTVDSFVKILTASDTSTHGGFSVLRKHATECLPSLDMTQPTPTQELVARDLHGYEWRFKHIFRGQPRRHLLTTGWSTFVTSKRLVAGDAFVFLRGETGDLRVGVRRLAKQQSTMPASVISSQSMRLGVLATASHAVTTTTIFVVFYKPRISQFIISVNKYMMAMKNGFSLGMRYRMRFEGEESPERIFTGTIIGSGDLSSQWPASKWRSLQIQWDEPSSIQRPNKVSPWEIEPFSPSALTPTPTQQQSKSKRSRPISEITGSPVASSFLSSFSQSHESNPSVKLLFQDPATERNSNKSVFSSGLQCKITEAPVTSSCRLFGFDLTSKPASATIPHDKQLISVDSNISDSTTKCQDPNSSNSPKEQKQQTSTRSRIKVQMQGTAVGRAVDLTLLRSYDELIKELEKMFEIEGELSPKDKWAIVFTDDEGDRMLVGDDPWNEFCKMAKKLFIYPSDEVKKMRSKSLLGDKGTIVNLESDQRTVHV
Chain of UniProt Q9FX25 (whole entry, looked up): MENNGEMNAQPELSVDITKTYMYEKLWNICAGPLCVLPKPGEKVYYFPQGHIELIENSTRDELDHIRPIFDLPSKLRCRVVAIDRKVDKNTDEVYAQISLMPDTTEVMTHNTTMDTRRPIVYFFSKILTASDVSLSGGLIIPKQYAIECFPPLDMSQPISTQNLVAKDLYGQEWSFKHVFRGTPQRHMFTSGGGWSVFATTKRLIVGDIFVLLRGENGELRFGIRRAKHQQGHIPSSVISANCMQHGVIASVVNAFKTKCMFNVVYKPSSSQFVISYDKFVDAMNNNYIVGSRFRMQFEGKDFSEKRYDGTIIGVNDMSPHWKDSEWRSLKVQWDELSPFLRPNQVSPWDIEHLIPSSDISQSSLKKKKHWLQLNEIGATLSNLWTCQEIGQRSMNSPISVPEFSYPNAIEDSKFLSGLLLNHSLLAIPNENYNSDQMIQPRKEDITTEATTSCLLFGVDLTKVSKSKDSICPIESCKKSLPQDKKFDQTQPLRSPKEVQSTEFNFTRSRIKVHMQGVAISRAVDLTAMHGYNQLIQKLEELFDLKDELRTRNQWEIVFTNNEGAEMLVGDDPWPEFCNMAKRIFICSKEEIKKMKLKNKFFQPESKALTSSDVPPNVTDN
Chain of UniProt Q9XED8 (whole entry, looked up): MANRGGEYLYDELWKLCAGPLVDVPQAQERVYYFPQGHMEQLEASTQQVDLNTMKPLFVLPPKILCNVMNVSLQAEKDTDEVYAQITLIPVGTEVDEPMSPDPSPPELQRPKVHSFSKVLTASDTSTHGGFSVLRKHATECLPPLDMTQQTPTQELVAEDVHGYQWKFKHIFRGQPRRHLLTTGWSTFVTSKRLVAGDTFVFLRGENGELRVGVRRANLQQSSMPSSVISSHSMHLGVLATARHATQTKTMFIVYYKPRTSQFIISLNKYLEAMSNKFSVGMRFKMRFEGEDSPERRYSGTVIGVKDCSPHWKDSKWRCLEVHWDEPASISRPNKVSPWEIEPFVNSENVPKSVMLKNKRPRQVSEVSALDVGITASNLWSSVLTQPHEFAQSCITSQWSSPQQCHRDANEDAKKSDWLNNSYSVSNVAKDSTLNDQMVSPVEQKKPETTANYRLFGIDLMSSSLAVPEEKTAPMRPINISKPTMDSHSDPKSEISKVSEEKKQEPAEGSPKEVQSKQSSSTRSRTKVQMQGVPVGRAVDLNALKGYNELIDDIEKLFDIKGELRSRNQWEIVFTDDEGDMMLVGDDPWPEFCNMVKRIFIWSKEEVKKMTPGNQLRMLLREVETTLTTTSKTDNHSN
Chain of UniProt O24408 (whole entry, looked up): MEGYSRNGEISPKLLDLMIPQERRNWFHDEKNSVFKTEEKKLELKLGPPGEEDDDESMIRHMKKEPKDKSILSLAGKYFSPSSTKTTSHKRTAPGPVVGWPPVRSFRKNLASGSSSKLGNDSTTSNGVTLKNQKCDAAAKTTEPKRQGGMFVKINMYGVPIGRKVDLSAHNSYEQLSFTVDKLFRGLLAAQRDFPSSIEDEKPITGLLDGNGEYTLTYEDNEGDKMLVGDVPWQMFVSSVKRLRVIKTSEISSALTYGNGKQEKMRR
Chain of UniProt Q9XFM0 (whole entry, looked up): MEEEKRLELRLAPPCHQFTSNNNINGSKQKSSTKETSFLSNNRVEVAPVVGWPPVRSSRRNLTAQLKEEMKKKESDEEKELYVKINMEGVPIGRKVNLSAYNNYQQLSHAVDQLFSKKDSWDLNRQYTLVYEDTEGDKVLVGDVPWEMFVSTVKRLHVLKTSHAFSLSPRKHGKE
Chain of UniProt Q9SKN5 (whole entry, looked up): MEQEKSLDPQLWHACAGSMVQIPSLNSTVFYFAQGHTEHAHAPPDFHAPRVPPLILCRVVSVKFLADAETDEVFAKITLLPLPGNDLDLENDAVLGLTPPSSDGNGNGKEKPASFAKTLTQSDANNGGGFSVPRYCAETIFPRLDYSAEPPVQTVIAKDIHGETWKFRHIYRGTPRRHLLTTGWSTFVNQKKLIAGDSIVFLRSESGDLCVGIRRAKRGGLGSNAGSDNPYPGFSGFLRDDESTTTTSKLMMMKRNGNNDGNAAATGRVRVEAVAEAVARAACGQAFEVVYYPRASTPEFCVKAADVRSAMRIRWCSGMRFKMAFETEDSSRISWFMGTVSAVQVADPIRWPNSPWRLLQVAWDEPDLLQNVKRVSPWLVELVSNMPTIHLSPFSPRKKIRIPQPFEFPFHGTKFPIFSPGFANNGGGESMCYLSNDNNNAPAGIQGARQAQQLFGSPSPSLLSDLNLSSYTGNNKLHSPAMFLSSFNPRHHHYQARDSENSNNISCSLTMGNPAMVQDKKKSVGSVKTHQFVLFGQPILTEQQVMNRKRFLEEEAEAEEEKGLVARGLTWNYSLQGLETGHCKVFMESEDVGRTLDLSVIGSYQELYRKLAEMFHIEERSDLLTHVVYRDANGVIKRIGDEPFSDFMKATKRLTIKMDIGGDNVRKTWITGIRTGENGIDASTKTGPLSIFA
Chain of UniProt Q8LAL2 (whole entry, looked up): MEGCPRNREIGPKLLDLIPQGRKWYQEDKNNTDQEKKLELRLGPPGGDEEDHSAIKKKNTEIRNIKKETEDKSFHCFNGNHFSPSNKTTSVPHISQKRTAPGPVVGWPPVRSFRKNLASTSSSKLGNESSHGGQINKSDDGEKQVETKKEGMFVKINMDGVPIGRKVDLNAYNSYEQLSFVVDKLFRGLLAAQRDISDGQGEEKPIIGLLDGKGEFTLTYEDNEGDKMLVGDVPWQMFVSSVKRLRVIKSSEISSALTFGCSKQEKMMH

Study 1 — Molecule: B1 (IAA15); method: two-hybrid; direction: higher = firmer interaction
B1: IAA15 (Arabidopsis thaliana, UniProt Q9C966); chain MSPEEYVRVWPDSGDLGGTELTLALPGTPTNASEGPKKFGNKRRFLETVDLKLGEAHENNYISSMVTNDQLVGWPPVATARKTVRRKYVKVALDGAAYLRKVDLGMYDCYGQLFTALENMFQGIITICRVTELERKGEFVATYEDKDGDLMLVGDVPWMMFVESCKRMRLMKTGDAIGL
| partner | setting | reference | positive tests |
| --- | --- | --- | --- |
| ARF13 (Arabidopsis thaliana, UniProt Q9FX25) | – | out of 4 tests | 0 |
| ARF14 497-605 (Arabidopsis thaliana, UniProt Q9LQE8) | – | out of 2 tests | 0 |
| ARF9 519-638 (Arabidopsis thaliana, UniProt Q9XED8) | weak activation fusion | out of 2 tests | 0 |
| ARF11 500-622 (Arabidopsis thaliana, UniProt Q9ZPY6) | – | out of 2 tests | 0 |
| IAA18 (Arabidopsis thaliana, UniProt O24408) | – | out of 2 tests | 2 |
| IAA26 (Arabidopsis thaliana, UniProt Q8LAL2) | – | out of 2 tests | 0 |
| ETT (Arabidopsis thaliana, UniProt O23661) | – | out of 2 tests | 0 |
| ARF10 575-693 (Arabidopsis thaliana, UniProt Q9SKN5) | – | out of 2 tests | 0 |
| IAA28 (Arabidopsis thaliana, UniProt Q9XFM0) | – | out of 2 tests | 0 |

Study 2 — target: CEBPE, bZIP domain (human); method: DHFR protein complementation; medium: yeast; reference: wild-type JUN-FOS pair; direction: higher = stronger binding
Setting: single substitutions, most at no-binding floor
Starting sequence: JUN, bZIP domain (human); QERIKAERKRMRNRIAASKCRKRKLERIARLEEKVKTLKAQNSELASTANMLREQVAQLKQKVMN; partner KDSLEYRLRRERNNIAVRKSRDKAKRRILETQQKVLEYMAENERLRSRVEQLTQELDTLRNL
| Change | binding fitness [natural log] |
| --- | --- |
| L45F | -1.44 |
| E32T | -1.35 |
| T48M | -1.11 |
| L59T | -1.43 |
| E54G | -1.26 |
| L59C | -1.23 |
| V35E | -1.34 |
| E32H | -1.39 |
| A57K | -1.04 |
| S43L | -1.04 |
| L45P | -1.5 |
| Q55H | -1.35 |
| T37A | -0.964 |
| R30Y | -1.16 |
| A49K | -1.45 |
| I28W | -1.12 |
| A40T | -1.1 |
| K39E | -0.995 |
| E32P | -1.39 |

Study 3 — target: CCNB3, cyclin fold, Cln2 fusion (human); method: yeast growth competition, sequencing; medium: yeast; setting: weak parent motif; reference: not given; direction: higher = stronger binding
Starting sequence: HASPIN docking peptide (human); ASLRSVLFGLMNS
| Change | normalised enrichment score |
| --- | --- |
| ASLRSVLFALMNS [G9A] | 0.41 |
| ASLRSVAFGLMNS [L7A] | 0.571 |
| ASLRSVLFGLANS [M11A] | 0.666 |
| ASLRSVLFGLMAS [N12A] | 0.766 |
| ASLRSVLFGAMNS [L10A] | 0.185 |
| ASLRSVLFGLMNA [S13A] | -0.164 |

Study 4 — method: RNA Bind-n-Seq; molecule type: RNA; medium: in vitro; tested at: 365 nM; reference: no-protein control; direction: higher = stronger binding
Target: RNA binding protein fox-1 homolog 2, RRM domain, GST-SBP tag (RBFOX2, Homo sapiens, UniProt O43251-10, residues 100-194)
Setting: natural RNA segment, single round, ends assumed
Shared flanks, not repeated: GGGAGUUCUACAGUCCGACGAUC … UGGAAUUCUCGGGUGCCAA
Residues (chain): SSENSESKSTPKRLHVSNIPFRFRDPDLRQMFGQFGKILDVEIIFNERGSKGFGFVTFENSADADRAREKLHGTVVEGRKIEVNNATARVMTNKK
| Oligonucleotide | RBNS enrichment (R) |
| --- | --- |
| CUGACAGCUUACGUGUCAGAGGGCAGAACUCAGCCAGUCCUGUGGUUUCAGGUGUUAAUAUGUAAACAAGCAUCUCAUUUAACUUCACUGUGCUCAGCUUUGAAAAGAAC | 0.447 |
| UAAUAUUCAUUUAAUUUGUGCAUGACUUGUGGCCUUUUUGUAUUUUCUCAAGCCUAUUACUCUAGAGCUGUAAAAGCUCUUGCACAGCAUUGUUGUGUCAGUGUAGAAUA | 1.19 |
| GUGUAAGACUCAGCAGUGUUCAUGGUUAAGGUAAGGAACAUGCCUUUUCCAGAGCUGCUGCAAGAGGCAGGAGAAGCAGACCUGUCUUAGGAUGUCACUCCCAGGGUAAA | 0.637 |
| AAUCAGUGGCACUGUUAAUAUCCGCACAAGAGACAAUAAGGUCCACGGGGAACGCACCAUUUCUGAAACUAUCGAGCGGCUACAGCAGCUCAAAGAGUUCCGCAGCAAAC | 0.344 |
| AAGAAAAUUAUUGAUGAAGUGGCCUUGUAAGUACAUGGUCUCUGAAAAAAAUUCAAGUUUUGUUCUUAGGAUGUCCAAUAGAAGAUAACUGUGGAUGAUAACUAAUUCUA | 0.714 |
| UCCUGCUUUGAAAACUCACGCUGGCUGCUUCACUGCCCUGAGAUUCAGUGAGACACGCAGUUUGUGUUCAGUUUUUACAUCCUCUGAUUGUUUAUCUUGUGCAGAUAAAC | 0.263 |
| UCUCUCCUGGGCAGGAAAGCCCUCCUAGGGGAGAUUUCCAGGAGAUGUGGCCUUGACGAGUUUCUUCUCCUCCUGAUUCAAUGGAAUCUCCCAUAAACACCAAAUGAUUG | 0.589 |
| AGCAGAAAAGCUCCCACCAUUUUCUUUUGAUGUGGUUUUAAAGUCUCACGUUCUCUAUAAUAGAAACAGCAGGUCUUGUCAGCUCCUUGUGUGGCUGAUGUGUCUGGAAA | 0.45 |
| AACUGCUGUACUUUUGAUUCUUGUAUAUUAAAAAGUGUUACUGAGCAUUUUUAGAAUUGGGCUAACACGUUGCAUUGCAUUGUGGUGUGAGCUCUGUGACUAGAGAUACC | 3.06 |
| CCUGAGCCAUGUGGGAGUCGUGUGAAUGACCAAGGCAGAUGCUAGCAAGUGGUGCUUCCUUCUCAGCACGUCUCUAGGAAGCAUGGACACCCGAGUGUGGCUUUUCUCAA | 29 |
| AUUCUUUUAUAUGUUUUUAAAAAAAAGCUUAAGAAACAUUGCUUUAAAAAGGAAGGAAAAAAAAUACAGCAAACCAUUGUUAAAGUAGAAGAGUUUUUAGGUUGAGAAAU | 0.755 |
| UCAUGUACAUAUGGUAUAGAAACCAUGGAGUUAGGCACUUCCUGGAUUUUUUUUUUAUGAGAAAAAUACUGUAUUUAAAAUGUAAAAUAAACUUUUAAAAAGCAGGCACU | 0.827 |

Study 5 — method: protein-binding microarray; molecule type: double-stranded DNA, one strand shown; medium: in vitro; tested at: 250 nM; setting: 60-bp whole probe; added: salmon DNA 0.4 mg/ml; reference: random background probes; direction: higher = stronger binding; shared flanks, not repeated: GCCTAGCAC … GTCTTGATTCGCTTGACGCTGCTG
Target: Interferon regulatory factor 7, full length, phosphomimetic (IRF7, Homo sapiens, UniProt Q92985, residues 1-503, S101K/S471D/S472D/S475D/S476D/S477D/S483D/S484D/S487D)
Chain of UniProt Q92985 (whole entry, unmodified, looked up): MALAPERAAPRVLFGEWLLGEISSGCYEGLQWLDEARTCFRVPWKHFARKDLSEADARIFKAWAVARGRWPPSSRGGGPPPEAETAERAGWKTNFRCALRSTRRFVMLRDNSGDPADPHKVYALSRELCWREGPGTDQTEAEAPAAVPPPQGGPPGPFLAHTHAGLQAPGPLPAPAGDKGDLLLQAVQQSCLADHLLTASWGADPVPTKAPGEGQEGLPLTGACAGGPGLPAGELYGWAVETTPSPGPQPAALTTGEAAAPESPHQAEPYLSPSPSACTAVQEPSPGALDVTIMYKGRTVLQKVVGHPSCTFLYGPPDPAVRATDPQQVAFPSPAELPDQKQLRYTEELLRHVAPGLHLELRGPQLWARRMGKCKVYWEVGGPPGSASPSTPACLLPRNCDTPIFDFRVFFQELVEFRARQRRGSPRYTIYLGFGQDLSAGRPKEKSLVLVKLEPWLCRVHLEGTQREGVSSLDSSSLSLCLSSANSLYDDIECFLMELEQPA
| Oligonucleotide | log fluorescence |
| --- | --- |
| GACGGTATCGACTATCGTGACGTGCTA | -0.218 z-score |
| GACGGCCTGCTTCTCCTGACGTGCTAG | -0.232 z-score |
| TTAGGTTTCGACTAGCGGTTAGTGCTA | 6.31 z-score |
| TTAGGTATCCTACTGCATTAGTGCTAG | -0.351 z-score |
| CTGTTTCTGTGTCACAGAGGGTGCTAG | 3.33 z-score |
| GAGGCAAGGAGGGAGAACAGGTGCTAG | -0.989 z-score |
| CTTTACTTCACTCTCTGCTTGTGCTAG | 0.583 z-score |
| ATATATGTAATCATTCACCTGGTGCTA | 0.172 z-score |
| CTAGAACTGGGGTATCGATTAGTGCTA | 0.185 z-score |
| ATGACTCCCTCTCTGGCCAAGTGCTAG | -0.0982 z-score |
| GACGGTTCCGGTTTCGGGTCGTGCTAG | 9.72 z-score |
| TTAGGTTTTCTTATCCTTTAGTGCTAG | 0.976 z-score |
| GACGAAATCAGTATCGAGACGTGCTAG | 0.164 z-score |
| TCAATTCTCTGCTTCTGACTGTGCTAG | 0.854 z-score |
| GACGATCTCAGTTTCGACACGTGCTAG | 2.48 z-score |
| GACGATTCCATTTTCGAGACGTGCTAG | 1.55 z-score |
| TCAACTTCTCTTTTGGCACTGTGCTAG | 0.515 z-score |
| GACGATTTCGGGTATAGAGACGTGCTA | 0.544 z-score |
| GAAGGTATCGACTATCGGGACGTGCTA | -0.195 z-score |
| GCCGGTCTCGGACTGGGGACGTGCTAG | 0.209 z-score |
| ATTTTTCTAATTTACTTTGGGTGCTAG | 2.35 z-score |

Excerpt of the above (study 5):
| Oligonucleotide | log fluorescence |
| --- | --- |
| GACGGTTCCGGTTTCGGGTCGTGCTAG | 9.72 z-score |
| GAGGCAAGGAGGGAGAACAGGTGCTAG | -0.989 z-score |
| CTGTTTCTGTGTCACAGAGGGTGCTAG | 3.33 z-score |
| GACGATTCCATTTTCGAGACGTGCTAG | 1.55 z-score |
| GACGAAATCAGTATCGAGACGTGCTAG | 0.164 z-score |
| TCAACTTCTCTTTTGGCACTGTGCTAG | 0.515 z-score |
| GACGGCCTGCTTCTCCTGACGTGCTAG | -0.232 z-score |
| GACGATTTCGGGTATAGAGACGTGCTA | 0.544 z-score |
| TCAATTCTCTGCTTCTGACTGTGCTAG | 0.854 z-score |
| ATTTTTCTAATTTACTTTGGGTGCTAG | 2.35 z-score |
| TTAGGTTTTCTTATCCTTTAGTGCTAG | 0.976 z-score |
